Experimental data gathered from unrelated publications.
A part holds a random share of what one study measured.

Series 1 — method: protein binding microarray; form: double-stranded DNA, one strand shown; matrix: in vitro; tested at: not given; baseline: not given; reading: higher = stronger binding
Target: Histone acetyltransferase KAT6A, winged helix 2, GST fusion (KAT6A, Homo sapiens, UniProt Q92794, residues 85-181)
Notes: 8-mer, flanks averaged, mean of 2 arrays, mostly near background
Residues (chain): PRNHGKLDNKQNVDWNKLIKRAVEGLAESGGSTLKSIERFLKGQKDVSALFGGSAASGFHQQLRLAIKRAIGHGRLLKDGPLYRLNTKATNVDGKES
Oligonucleotide	E-score
AACGGCCA	-0.0543
ATTCTAGA	0.0194
GGTAGCAC	-0.0146
CAGACGAG	0.0449
ATCGCTAA	0.0351
GTCGCCGA	0.164
ACATGATG	-0.151
CTGTTAGC	-0.019
TAACGTAA	-0.175
AGTCGTTA	-0.263
GAGATAAA	0.159
AGGTTCGG	-0.0333
ACACGCAG	-7.5e-05
AGAATCTC	-0.0165
ACTTGGGG	-0.158
GCACCGGA	0.165
AAATTCGA	0.047

Series 2 — method: universal PBM; form: double-stranded DNA, one strand shown; matrix: in vitro; tested at: 600 nM; reading: higher = stronger binding
Target: Sal-like protein 4, full length isoform A (SALL4, Homo sapiens, UniProt Q9UJQ4, residues 1-1053)
UniProt Q9UJQ4, sequence (whole entry, looked up): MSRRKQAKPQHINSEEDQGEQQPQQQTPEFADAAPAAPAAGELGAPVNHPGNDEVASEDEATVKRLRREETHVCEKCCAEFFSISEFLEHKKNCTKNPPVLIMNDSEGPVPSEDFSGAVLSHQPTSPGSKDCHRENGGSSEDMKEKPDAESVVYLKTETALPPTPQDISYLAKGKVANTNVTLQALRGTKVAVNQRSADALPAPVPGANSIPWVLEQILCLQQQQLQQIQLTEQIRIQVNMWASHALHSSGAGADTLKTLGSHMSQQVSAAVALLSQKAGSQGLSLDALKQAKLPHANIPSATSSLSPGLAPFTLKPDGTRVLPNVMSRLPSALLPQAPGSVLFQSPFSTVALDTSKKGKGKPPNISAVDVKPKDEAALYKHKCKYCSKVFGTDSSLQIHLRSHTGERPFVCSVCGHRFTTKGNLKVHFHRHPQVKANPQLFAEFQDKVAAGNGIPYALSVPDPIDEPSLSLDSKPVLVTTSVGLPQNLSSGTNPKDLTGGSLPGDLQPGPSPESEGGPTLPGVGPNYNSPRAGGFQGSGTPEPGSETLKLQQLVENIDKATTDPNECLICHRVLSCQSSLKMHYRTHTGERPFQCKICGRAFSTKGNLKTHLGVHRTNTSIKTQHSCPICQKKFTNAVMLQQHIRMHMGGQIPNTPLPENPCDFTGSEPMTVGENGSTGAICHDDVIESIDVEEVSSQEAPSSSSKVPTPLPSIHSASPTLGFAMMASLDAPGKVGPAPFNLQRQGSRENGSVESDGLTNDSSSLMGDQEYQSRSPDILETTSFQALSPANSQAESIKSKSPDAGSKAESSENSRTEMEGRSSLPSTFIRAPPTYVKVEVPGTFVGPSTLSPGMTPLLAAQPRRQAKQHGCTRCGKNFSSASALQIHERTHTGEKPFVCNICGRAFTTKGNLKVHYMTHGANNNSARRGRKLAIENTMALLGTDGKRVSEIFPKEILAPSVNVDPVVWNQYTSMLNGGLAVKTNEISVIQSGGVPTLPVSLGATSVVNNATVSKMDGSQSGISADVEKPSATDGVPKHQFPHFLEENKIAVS
Notes: 8-mer, flanks averaged, mean of replicates
Oligonucleotide	E-score
ACGCGCGA	-0.192
AACGCACA	0.0504
AATCACTC	0.128
ACTGGACC	-0.328
CAACCTTG	-0.0563
ACTTGGGG	-0.11
AAATTTAT	0.405
CCTTCGCG	-0.109
ACCTCCGC	-0.293
AGCTGCAC	-0.189
CCTCAGTA	-0.0394
GAAAAGCA	0.0503
AGGAGGAG	-0.109
AGGTAGAG	-0.00215
CTTAGCGA	-0.0756
AGTGTTGA	0.0972
TTATCGAA	0.251
CACTATGC	0.108
AATCGCAG	0.107
GCAAATTA	0.212
TCGGTTCA	-0.0783
CGTTAACG	-0.0773
GATCGAAA	0.118
CGCAGGTC	-0.317
ACAGACAT	0.214

Series 3 — method: RNA Bind-n-Seq; form: RNA; matrix: in vitro; tested at: 365 nM; baseline: no-protein control; reading: higher = stronger binding
Target: RNA binding protein fox-1 homolog 2, RRM domain, GST-SBP tag (RBFOX2, Homo sapiens, UniProt O43251-10, residues 100-194)
Notes: natural RNA segment, single round, ends assumed
Target sequence (chain): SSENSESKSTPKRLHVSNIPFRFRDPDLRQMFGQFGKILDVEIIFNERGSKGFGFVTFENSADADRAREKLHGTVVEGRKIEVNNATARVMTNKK
Oligonucleotide	RBNS enrichment (R)
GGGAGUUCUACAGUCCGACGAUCGGCUACCUGAGUACACCCCGCGCACCCUUGAGCAGGCCGGCCCUCCCCUCGUGGCAGCUGUCCUUUCCACGUGCACUGGGACCAGAAGUCAGACAAGGAAUUUAGGAAGCUGGAAUUCUCGGGUGCCAA	0.218
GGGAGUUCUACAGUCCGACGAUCCUUGCAUACUAUUAUGCAGCUUACCUAACUCUCAGACUAUUCUGAGUAAUGCUUGCUUGCUAAUGAAUGUAUAGGAGACCACAUUGUAAUUGUUCUUAGAUGAUGGAGUCUGGAAUUCUCGGGUGCCAA	0.874
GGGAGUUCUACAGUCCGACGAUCGAAUAUGGAAUGAGAACAUUCAUUAUUGAGGUUGUCCAAUGGCCAGGGUAUGCUUUCUAGAAAAUAUGCUGUUCUGUCCCAGAAUGACUGUGCAUAGGGUAUCCGUUUCAUGGAAUUCUCGGGUGCCAA	0.449
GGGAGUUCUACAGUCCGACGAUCUGAGAGUUCGAGGCUCUUUGUUUGGUAUCUUUUGUGUUAAUGUGUCUUGAAUCUGCCAAUCUGUAUGUUAAAACAGCUGACAGAUUGUAAAGCUAUUGCACUGCGUUGCCUGGAAUUCUCGGGUGCCAA	0.906
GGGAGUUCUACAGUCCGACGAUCCCCUCUCCACCUGCUGAGCUGAGCAAACCAGUAGAGGAAACAGGAUUGAUCUUAACUGAACGAAAACAAAACUGCAUAUGUACUUAAACAGUCUGCAUAUUUGCCAUCCAUGGAAUUCUCGGGUGCCAA	0.317
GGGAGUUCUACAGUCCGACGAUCUGUCAGCAGCACAACACAAUCUAUAUGACUUUCUCUUUUGCACUUCACUUGUGUAUUUUACAGUGGUAGUAAAAUAUGUCUUCAACUGAUCAUUGCACUUAAAAUAUUAAUGGAAUUCUCGGGUGCCAA	0.873
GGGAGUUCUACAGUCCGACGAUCACCUUCGGUGGAAUGUAUUGUUUCAGCAUAUUCUAUGUAUAAAAAAGUUUAAAGAUGUCUUCAAAGAAGACUAGAGUCUUUAAGUCACUUAUAGCUAUAUUUUACUACAAUGGAAUUCUCGGGUGCCAA	0.411
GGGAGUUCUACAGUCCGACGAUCCCUUUGUGCUCUCACCCUCCACUCUGGUAAAGCUGCACCUCUGGGGGAAUGAGGGGCUGCAGGAAUCUCUGGAGAGCCUGGUGCUUCACGAUGCUGCUCUGGUGAUUCUUUGGAAUUCUCGGGUGCCAA	0.341
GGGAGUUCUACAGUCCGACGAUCAUUAUGAAUAGUGUUGCACUGUAAUCUAUCAUAUAGAGCUAUAUGUAUGGAAAUUUUUGAUCAGUUUUUUAAGAGAUGUAUCCUGUUUGCAAAGGCACAAUAAAAUUGCAUGGAAUUCUCGGGUGCCAA	6.87
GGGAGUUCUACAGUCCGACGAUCGUACAGGAGAUCCCUUCUCACCCUCCAGCUCUGCAAACCGUGUCUCAUGUUUCACAGCGUUCCUGUUUUUUCUCUCCCGCCACCCCCACCGGCAUUUCCUUCUUCCACCAUGGAAUUCUCGGGUGCCAA	0.563
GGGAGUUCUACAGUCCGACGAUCCACCAAGAGGGACGCCUGGGGGUGCCAGGACCAGUCAACCUGGGCAAAGCCUAGUGAAGGCUUCUCUCUGUGGGAUGGGAUGGUGGAGGGCCACAUGGGAGGCUCACCCCUGGAAUUCUCGGGUGCCAA	0.377
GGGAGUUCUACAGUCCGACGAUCGUAAUUCUUUUGUACAUUGAAAUGAGGGGCUUGGUUUAAAAAAAGACCUUUCCCUCUCCCUGCCCCUAGAACAACCAGUAUUAGAAGGUGCCACCAUUGGUGCUGCCUUCUGGAAUUCUCGGGUGCCAA	0.257

Series 4 — organism: Saccharomyces cerevisiae; observed: binding; method: competitive growth deep sequencing; form: peptide; strain: cyclin D3-Cln2 fusion strain; tested at: concentration not given; notes: tiling library, Cln2 subtracted; reading: direction not given
Molecule	growth enrichment score
EPKTLFLGAGDFQF	0.793
ARKRLELGNLGNPQ	-1.13
ALLRRLQDVANDRGSH	4

Series 5 — method: protein-binding microarray; form: double-stranded DNA, one strand shown; matrix: in vitro; tested at: 2200 nM top; notes: 60-bp whole probe; together with: salmon DNA 0.4 mg/ml; baseline: random background probes; reading: higher = stronger binding; constant ends, left off below: GCCTAGCAC … GTCTTGATTCGCTTGACGCTGCTG
Target: Interferon regulatory factor 7, full length, phosphomimetic (IRF7, Homo sapiens, UniProt Q92985, residues 1-503, S471D/S472D/S475D/S476D/S477D/S483D/S484D/S487D)
Residues (chain): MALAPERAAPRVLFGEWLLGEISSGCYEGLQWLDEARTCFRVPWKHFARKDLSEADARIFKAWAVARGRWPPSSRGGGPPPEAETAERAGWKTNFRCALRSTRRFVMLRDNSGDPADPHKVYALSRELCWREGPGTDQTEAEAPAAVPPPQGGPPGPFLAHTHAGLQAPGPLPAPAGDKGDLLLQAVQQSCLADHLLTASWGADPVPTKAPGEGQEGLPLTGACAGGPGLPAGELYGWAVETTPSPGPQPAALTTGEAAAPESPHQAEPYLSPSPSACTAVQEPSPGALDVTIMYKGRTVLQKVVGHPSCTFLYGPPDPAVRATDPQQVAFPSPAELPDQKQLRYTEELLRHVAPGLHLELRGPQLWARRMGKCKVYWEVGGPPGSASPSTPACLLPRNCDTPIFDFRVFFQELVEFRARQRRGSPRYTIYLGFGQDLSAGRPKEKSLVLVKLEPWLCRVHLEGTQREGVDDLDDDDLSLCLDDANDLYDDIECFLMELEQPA
Oligonucleotide	fitted relative affinity [z-score]
TCACTCCTCTAGGTTCTCACTGTGCTA	1.73
GACGATTTCAGTCTCTAGACGTGCTAG	1.1
TTACGTATCCTTATCCTTTAGTGCTAG	2.5
TTAGGTATCCTCATCCTTTAGTGCTAG	0.905
GACGAACTGGGGTTTCGTGACGTGCTA	0.677
TTAGATTTCAGTCCCGATTAGTGCTAG	0.764
GACGGTATCCTTCTACTGACGTGCTAG	1.09
GACGATCTCAATTTCGAGACGTGCTAG	1.43
GACGGTCTCGGTATCGGGACGTGCTAG	0.025
ATTACTTTAGGTTCCCAGGTGTGCTAG	1.65
TCAGCTCTTATATACCTGACTGTGCTA	0.753
GACGATCTCAGTTTCGTGACGTGCTAG	2.45
TTAGGTAACGGTTTCGGTTAGTGCTAG	5.21
TCAGATCTCAGACTGTGACTGTGCTAG	0.148
GGTCTTCTGGGCTGTTTAGTCGTGCTA	-0.0652
TTAGGGTTCGGGTATCGGTTAGTGCTA	0.655
TCACCTCTGTCATTTTCACTGTGCTAG	2.72
AAGCAGTTACTCTAGAGGCCGTGCTAG	-0.575
TTAGGTAGCGGACTGGGTTAGTGCTAG	-0.764
GACGGTATCGTCACTGGGGACGTGCTA	-0.347
TTAGGACGGCTTTTCCTTTAGTGCTAG	0.51
TCATGCTTCTGTATTCAACTGTGCTAG	1.42

Excerpt of the above (series 2):
Oligonucleotide	E-score
AAATTTAT	0.405
CCTTCGCG	-0.109
ACCTCCGC	-0.293
AGCTGCAC	-0.189
CCTCAGTA	-0.0394
GAAAAGCA	0.0503
AGGAGGAG	-0.109
AGGTAGAG	-0.00215
CTTAGCGA	-0.0756
AGTGTTGA	0.0972
TTATCGAA	0.251
CACTATGC	0.108
AATCGCAG	0.107
